Assay results gathered from unrelated publications.
A part holds a random share of what one study measured. Substitutions count along the parent as printed.

Series 1
Target: Interferon regulatory factor 3, full length, phosphomimetic (IRF3, Homo sapiens, UniProt Q14653, residues 1-427, S386D/S396D/S398D/S402D/T404D/S405D)
Technique: protein-binding microarray
Form: double-stranded DNA, one strand shown
Sample: in vitro
Tested at: 2540 nM top
Notes: 60-bp whole probe
Together with: salmon DNA 0.4 mg/ml
Reference: random background probes
Direction: higher = stronger binding
All sequences stand within: GCCTAGCAC … GTCTTGATTCGCTTGACGCTGCTG
Target sequence (chain): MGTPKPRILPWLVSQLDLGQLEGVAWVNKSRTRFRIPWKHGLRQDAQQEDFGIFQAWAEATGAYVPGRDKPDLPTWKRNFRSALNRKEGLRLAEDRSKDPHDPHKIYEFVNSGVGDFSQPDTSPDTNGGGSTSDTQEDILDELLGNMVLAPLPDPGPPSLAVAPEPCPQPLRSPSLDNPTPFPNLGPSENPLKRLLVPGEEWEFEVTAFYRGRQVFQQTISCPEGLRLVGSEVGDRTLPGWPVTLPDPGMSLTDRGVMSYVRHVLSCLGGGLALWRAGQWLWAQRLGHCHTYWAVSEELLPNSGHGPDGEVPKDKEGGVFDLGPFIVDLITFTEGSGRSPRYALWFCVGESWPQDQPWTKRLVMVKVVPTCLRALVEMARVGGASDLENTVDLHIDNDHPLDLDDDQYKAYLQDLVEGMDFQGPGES
`GACCGTCTCCTTTTCCTGACGTGCTAG`: “fitted relative affinity” 4.18 z-score.
`TTAGGTATCGACTATCGGTCAGTGCTA` — result for “fitted relative affinity”: 0.334 z-score.
`TTAGGTTTCGGTATGGGTTAGTGCTAG` — result for “fitted relative affinity”: 7 z-score.
Under “fitted relative affinity”, `GGGAAAATGGCTTTGCAGATGTGCTAG` is recorded as -0.853 z-score.
For `TTAGGTATCGACACTGTGTTAGTGCTA`, “fitted relative affinity” read 0.276 z-score.
`GACGATATCGGGTAACGAGACGTGCTA` — result for “fitted relative affinity”: 0.071 z-score.
Under “fitted relative affinity”, `TTAGGACTGGGGACTGGGTTGGTGCTA` is recorded as -1.19 z-score.
For `TCAAGAATAATTTTTTAGACTGTGCTA`, “fitted relative affinity” read -0.391 z-score.
`GACGGTCTCCATATCCTGACGTGCTAG` — result for “fitted relative affinity”: 1.95 z-score.
Under “fitted relative affinity”, `TAAGATATCAGTTTCGATTAGTGCTAG` is recorded as 4.98 z-score.
`TCACTTCTTTTTTTTCTACTGTGCTAG`: “fitted relative affinity” 2.15 z-score.
`GACGATTTCAGATCCGAGACGTGCTAG`: “fitted relative affinity” 2.03 z-score.
Under “fitted relative affinity”, `TTAGGACTGGGGATTGGGTTAGTGCTA` is recorded as -0.792 z-score.
For `GACGGTATCGGTTTCTGGACGTGCTAG`, “fitted relative affinity” read 5.84 z-score.
`TTGGGTCTCGGACTGGGTTAGTGCTAG`: “fitted relative affinity” -1.03 z-score.
Under “fitted relative affinity”, `TTAGGTCTAGGTCTCGGTTAGTGCTAG` is recorded as -0.404 z-score.
`TTAGGTCTCGGGCTGGGTTAGTGCTAG` — result for “fitted relative affinity”: -0.973 z-score.
For `GACGATTTCAGTCTCGAGTCGTGCTAG`, “fitted relative affinity” read 2.68 z-score.
`GACGGTTTCCTTATCCCGACGTGCTAG` — result for “fitted relative affinity”: 8.42 z-score.
For `TTAGATTTTAGTATCGATTAGTGCTAG`, “fitted relative affinity” read 1.22 z-score.

Series 2
Target: ABI1, truncated, D143A, DHFR fusion (Arabidopsis thaliana)
Technique: DHFR PCA, deep sequencing
Sample: yeast
Notes: methotrexate growth selection, single substitutions
Together with: (+)-ABA 0.11 µM
Reference: wild-type fitted maximum
Direction: higher = stronger binding
Starting sequence: PYL1, truncated, DHFR fusion (Arabidopsis thaliana); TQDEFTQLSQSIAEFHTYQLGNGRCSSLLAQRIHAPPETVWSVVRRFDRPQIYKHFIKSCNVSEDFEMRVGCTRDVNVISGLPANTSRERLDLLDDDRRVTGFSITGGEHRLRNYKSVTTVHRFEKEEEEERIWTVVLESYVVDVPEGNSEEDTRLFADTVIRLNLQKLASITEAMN
For `M68S`, “relative binding score” read -0.919%.
`T160S`: “relative binding score” 7.71%.
`Y141M` — result for “relative binding score”: -7.9%.
`T17Y` — result for “relative binding score”: -4.91%.
`R49V`: “relative binding score” 2.13%.
Under “relative binding score”, `W134F` is recorded as 30.8%.
For `D95A`, “relative binding score” read -6.66%.
For `T106A`, “relative binding score” read -5.15%.
Under “relative binding score”, `F66D` is recorded as 5.29%.
`E128D` — result for “relative binding score”: 56.9%.
`R111H` — result for “relative binding score”: 2.13%.
For `F157W`, “relative binding score” read 33.2%.

Series 3
Target: Prothrombin, mature alpha-thrombin (F2, Homo sapiens, UniProt P00734)
Technique: aptamer microarray, sandwich
Form: DNA with 2'F-ANA
Sample: in vitro
Tested at: 200 nM
Notes: whole 15-mer aptamer, many near background
Together with: Cy3 exosite-II aptamer, 400 nM
Direction: higher = stronger binding
Oligonucleotide: GGTTGGTGTGGTTGG
`2'F-ANA at 2 3 7 9 13`: “mean fluorescence intensity” 701 a.u.
For `2'F-ANA at 4 6 7 8 11 14`, “mean fluorescence intensity” read 89.3 a.u.
`2'F-ANA at 1 2 4 5 11 12 13 14`: “mean fluorescence intensity” 160 a.u.
For `2'F-ANA at 1 2 3 4 6 7 10 13 14 15`, “mean fluorescence intensity” read 91.2 a.u.
`2'F-ANA at 7 9 11 12 14`: “mean fluorescence intensity” 286 a.u.
For `2'F-ANA at 3 9 10 14 15`, “mean fluorescence intensity” read 377 a.u.
For `2'F-ANA at 1 5 6 8 9 10 13 14 15`, “mean fluorescence intensity” read 49.4 a.u.
For `2'F-ANA at 1 2 3 4 5 7 9 10 14 15`, “mean fluorescence intensity” read 44.5 a.u.
For `2'F-ANA at 1 2 5 7 8 13 14`, “mean fluorescence intensity” read 44.4 a.u.
Under “mean fluorescence intensity”, `2'F-ANA at 1 5 6 7 9 11 12 13 15` is recorded as 62.7 a.u.
For `2'F-ANA at 2 5 7 9 10 12 15`, “mean fluorescence intensity” read 49.6 a.u.
Under “mean fluorescence intensity”, `2'F-ANA at 2 4 7 9 10 12 14` is recorded as 127 a.u.
For `2'F-ANA at 1 5 7 13`, “mean fluorescence intensity” read 45.7 a.u.
`2'F-ANA at 6 7 10 11 12 14` — result for “mean fluorescence intensity”: 110 a.u.
`2'F-ANA at 1 2 3 6 9 10 12 14`: “mean fluorescence intensity” 53.7 a.u.
Under “mean fluorescence intensity”, `2'F-ANA at 1 3 5 6 9 11 12 14` is recorded as 47.9 a.u.

Series 4
Target: CCNF, cyclin fold, Cln2 fusion (human)
Technique: yeast growth competition, sequencing
Sample: yeast
Notes: strong parent motif
Reference: not given
Direction: higher = stronger binding
Starting sequence: BRCA2 docking peptide (human); PSIKRNLLNEFDR
`S2Y`: “normalised enrichment score” 2.62.
`E10M`: “normalised enrichment score” 2.28.
`F11T`: “normalised enrichment score” 0.78.
`F11A` — result for “normalised enrichment score”: 2.08.
`L8H`: “normalised enrichment score” 0.589.
`S2C` — result for “normalised enrichment score”: 2.47.
For `N6D`, “normalised enrichment score” read 0.763.
For `R5D`, “normalised enrichment score” read 0.525.
Under “normalised enrichment score”, `L7Q` is recorded as 1.04.
`L7A`: “normalised enrichment score” 0.609.
For `N9W`, “normalised enrichment score” read 5.41.
For `I3S`, “normalised enrichment score” read 1.09.
`K4Q` — result for “normalised enrichment score”: 2.49.
Under “normalised enrichment score”, `N6A` is recorded as 2.99.
`L7D` — result for “normalised enrichment score”: -0.517.
`R13W`: “normalised enrichment score” 5.
For `D12T`, “normalised enrichment score” read 2.12.
For `N9E`, “normalised enrichment score” read 2.31.
`R5M`: “normalised enrichment score” 0.38.
`F11C`: “normalised enrichment score” 0.155.
`F11D` — result for “normalised enrichment score”: 0.228.
Under “normalised enrichment score”, `P1I` is recorded as 3.29.
`F11G` — result for “normalised enrichment score”: 2.23.
`L8E` — result for “normalised enrichment score”: 1.42.
Under “normalised enrichment score”, `D12Q` is recorded as 3.05.

Series 5
Target: Sal-like protein 4, full length isoform A (SALL4, Homo sapiens, UniProt Q9UJQ4, residues 1-1053)
Sequence of UniProt Q9UJQ4 (whole entry, looked up): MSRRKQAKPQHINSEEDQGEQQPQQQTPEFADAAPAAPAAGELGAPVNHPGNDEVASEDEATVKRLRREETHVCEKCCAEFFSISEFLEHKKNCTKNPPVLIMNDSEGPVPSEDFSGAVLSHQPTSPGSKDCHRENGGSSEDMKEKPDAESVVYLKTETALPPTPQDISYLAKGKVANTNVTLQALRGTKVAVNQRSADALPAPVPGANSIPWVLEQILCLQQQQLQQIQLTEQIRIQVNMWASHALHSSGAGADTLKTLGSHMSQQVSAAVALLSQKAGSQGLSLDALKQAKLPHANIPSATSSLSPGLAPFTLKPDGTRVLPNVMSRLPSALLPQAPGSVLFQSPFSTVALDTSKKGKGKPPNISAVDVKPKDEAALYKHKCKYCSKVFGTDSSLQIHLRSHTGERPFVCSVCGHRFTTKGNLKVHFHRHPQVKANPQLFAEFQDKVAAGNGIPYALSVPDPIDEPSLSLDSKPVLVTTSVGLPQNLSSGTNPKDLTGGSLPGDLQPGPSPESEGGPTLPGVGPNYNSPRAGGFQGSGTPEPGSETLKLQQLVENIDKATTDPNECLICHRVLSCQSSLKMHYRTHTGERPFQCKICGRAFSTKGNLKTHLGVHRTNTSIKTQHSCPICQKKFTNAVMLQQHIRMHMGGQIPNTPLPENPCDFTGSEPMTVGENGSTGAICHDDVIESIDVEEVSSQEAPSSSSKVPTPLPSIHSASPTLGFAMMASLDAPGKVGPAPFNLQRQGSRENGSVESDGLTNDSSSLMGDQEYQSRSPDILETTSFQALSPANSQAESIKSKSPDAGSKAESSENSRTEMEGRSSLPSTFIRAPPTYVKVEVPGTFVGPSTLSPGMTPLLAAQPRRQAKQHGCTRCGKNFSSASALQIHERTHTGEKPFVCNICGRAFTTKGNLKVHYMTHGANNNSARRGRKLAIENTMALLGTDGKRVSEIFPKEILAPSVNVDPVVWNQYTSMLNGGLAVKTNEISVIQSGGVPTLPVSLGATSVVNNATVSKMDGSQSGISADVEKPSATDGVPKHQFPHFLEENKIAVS
Technique: universal PBM
Form: double-stranded DNA, one strand shown
Sample: in vitro
Tested at: 600 nM
Notes: 8-mer, flanks averaged, mean of replicates
Direction: higher = stronger binding
With `AACATTAC` the E-score was 0.221.
For `AATGGCGT`, the E-score was -0.156.
The E-score of `CAGGTCAC` is reported as -0.254.
The E-score of `CCTTGTTA` is reported as 0.257.
The E-score of `ACGGGCCA` is reported as -0.227.
`CACTTGGC` has an E-score of -0.0744.
`ACAGACGC` gave an E-score of -0.134.
With `AATTAGTC` the E-score was 0.243.
With `TGGTTACA` the E-score was 0.0694.
The E-score of `TAACCCAA` is reported as 0.106.
The E-score of `CTTAACCA` is reported as 0.126.
The E-score of `CCTCATCA` is reported as 0.0735.
The E-score of `CTCCCAAG` is reported as -0.08.
For `GGTAATAA`, the E-score was 0.351.
With `GAGAGGCC` the E-score was -0.254.
`ACAGAGAG` gave an E-score of -0.0535.
`ATGCGAAC` gave an E-score of 0.0388.
`ACACAGAC` has an E-score of 0.0364.
For `ACGTGAGC`, the E-score was -0.211.
`CTGACGGC` gave an E-score of -0.197.
`ATTCGAAA` gave an E-score of 0.208.
`AGAGGCGG` has an E-score of -0.139.
For `ACGACTCG`, the E-score was -0.226.
For `AAGGAGAG`, the E-score was -0.0739.
